Published values of several laboratories.
Compare with care: the assays were run in different laboratories. Several values in a cell are separate wells, animals, samples, runs or records. Numbers after ± are the reported error.

For `O=C(Nc1nc2cccc(-c3ccc(CN4CCS(=O)(=O)CC4)cc3)n2n1)C1CC1`, “patients with joint swelling” read 8.3% (rheumatoid arthritis patients; oral, 100 mg twice daily, 4 weeks, regardless of relatedness).
Under “Pyrexia treatment discontinuation”, `CNC(=O)c1ccc(-c2cnc3ncc(Cc4ccc5ncccc5c4)n3n2)cc1F` is recorded as 1% (Japanese patients; oral, 400 mg, any grade).
Under “daily dermal exposure dose”, `Cc1ccc(O)c(-n2nc3ccccc3n2)c1` is recorded as 496 ng/kg/day (human aged 21-60 years; concentration not given, foundation, 95th percentile).
`Cc1nc(O)n2ncc(Br)c2n1` has an HC50 of > 128 µg/mL (haemolysis; sheep erythrocytes; 1 h, pH 7.5).
For `CCc1cc(C(=O)NC)c2nccc(N3CCc4c(cc(Cn5ccnc5)cc4-c4cn(C)nc4C(F)(F)F)C3=O)c2c1`, the blood HGB was 132 ± 7.57 g/L (Sprague Dawley rats; oral, 100 mg/kg twice daily, 7 days).
For `Cl.[2H]C([2H])([2H])CC(=O)c1cnc(NC(=O)C2CC2)cc1Nc1cccc(-c2ncn(C([2H])([2H])[2H])n2)c1OC`, the Ctrough was 15.1 ng/mL (human, fasted, multiple dose; oral, 20 mg once daily, tablet, day 14, geometric mean).
With `CCCCCCCOc1ccc(CCC(N)(CO)CO)cc1C(F)(F)F.Cl` the urinary excretion was 0.126% (healthy men, urine; oral, 0.5 mg once daily, day 21, fed state; baseline: dose).
`Cc1cnc(N2CC3(CCOCC3)C2)c(C(=O)Nc2ccc(C(=O)N3CCc4cc(C(=O)Nc5c(C)cccc5F)sc4-c4ccccc43)cc2)c1` gave a concentration of 18000 ng/mL (human, nasal epithelial lining fluid; inhaled, 5 mg twice daily, 72 h).
`O=S(=O)(NCC(O)c1cc2ccccc2s1)c1cccc(Cl)c1O` (stereo not drawn) — result for “DLS scattered light intensity”: 433000 counts/s (colloidal aggregate formation, dynamic light scattering; 50 mM potassium phosphate buffer; 200 µM, pH 7.0, 1% DMSO; higher = more aggregation).
For `C[C@@H]1COCCN1c1cc(C2([S@](C)(=N)=O)CC2)nc(-c2cc[nH]c3nccc2-3)n1`, the Pyrexia incidence was 0% (Japanese advanced solid tumour patients; oral, 160 mg twice daily, CTCAE grade ≥3).
Under “geometric mean Cmax”, `CCCCC[C@H](O)CC[C@@H]1[C@H]2Cc3cccc(OCC(=O)O)c3C[C@H]2C[C@H]1O` is recorded as 0.66 ng/mL (LC-MS/MS; Japanese CTD-associated PAH patients, plasma; inhaled, 54 µg).
Under “incidence of Anaemia”, `NC1(C(=O)N[C@@H](CCO)c2ccc(Cl)cc2)CCN(c2nc[nH]c3nccc2-3)CC1` is recorded as 0% (metastatic CRPC patients; 400 mg b.i.d., any grade, treatment-related, added: enzalutamide 160 mg daily).
Under “subjects with adverse event”, `CC(C)n1c(Nc2cccnc2)nc2cnc(Nc3ccc(N4CCN(C)CC4)cc3)nc21` is recorded as 78.6% (refers to: at least one TEAE; healthy male subjects; oral, 100 mg, study, added: itraconazole).
For `CC(C)(Sc1ccncc1-c1ccc(C#N)c2ccccc12)C(=O)O`, “fraction excreted in urine (0-24 h)” read 1.67% (human, urine; oral, 5 mg, added: febuxostat 40 mg).
For `C[C@@H]1OC(=O)[C@H](Cc2ccccc2)[C@H]1O`, “Freundlich coefficient KF” read 2.12 mL/g (soil adsorption; tested soils; geometric mean).
For `CNC(=O)c1ccc(-c2cnc3ncc(Cc4ccc5ncccc5c4)n3n2)cc1F`, “vessel puncture site haematoma incidence” read 0% (healthy human subjects; oral, 200 mg, grade 3, all causality, added: itraconazole 200 mg/day).
Under “DLS scattered light intensity”, `O=C(O)C1Cc2nnc(CNS(=O)(=O)c3cccc(Cl)c3O)n2C1` (stereo not drawn) is recorded as 1.22e+08 counts/s (colloidal aggregate formation, dynamic light scattering; 50 mM potassium phosphate buffer; 200 µM, pH 7.0, 1% DMSO; higher = more aggregation).
With `Cn1c(C(F)(F)F)cc(=O)n(-c2cc(Oc3cccnc3OCC(=O)O)c(Cl)cc2F)c1=O` the AUC(0-24 h) was 19000 ng·h/mL (Crl:CD(SD) rats, female, plasma; oral diet, 800 ppm in diet, day 1, 90-day toxicity study).
`CCO[C@H]1CCN(Cc2c(OC)cc(C)c3[nH]ccc23)[C@H](c2ccc(C(=O)O)cc2)C1` — result for “incidence of cough”: 0% (PNH patients, active haemolysis; oral, 50 mg, 4 weeks, treatment).
`O=C1CCc2ccc(OCCCCN3CCN(c4cccc(Cl)c4Cl)CC3)cc2N1`: “adverse event incidence” 0.8% (refers to: Constipation; genotyped patients, CYP2D6 normal metabolizers; dose not given, long-acting oral or depot).
`C[C@@H]1CN(c2c(F)c(N)c3c(=O)c(C(=O)O)cn(C4CC4)c3c2F)C[C@H](C)N1` has a QTc interval of 334 ± 0.4 ms (male Hartley guinea pig, anaesthetized; intravenous, 10 mg/kg, baseline before infusion).
`O=C(Nc1ccc(OC(F)(F)Cl)cc1)c1cnc(N2CC[C@@H](O)C2)c(-c2ccn[nH]2)c1`: “amylase increase incidence” 2.4% (human patients; oral, dose not given; baseline: records).
For `Nc1c(CC(=O)O)cccc1C(=O)c1ccc(Br)cc1`, “active uptake clearance” read 520 mL/min/kg (cynomolgus monkey, suspended hepatocytes; dose not given; unbound, scaled in vitro).
The body weight of `Cc1nc(-c2ccc(OCC(C)C)c(C#N)c2)sc1C(=O)O` is reported as 25.3 g and 24.9 g and 24.3 g and 25.8 g and 26.7 g and 24.6 g (KM mouse, chronic hyperuricaemia model; dose not given, day 1).
`Cc1nc(-c2cnc(NC(C)C)n(C)c2=O)ccc1Oc1ccnc(-c2cnn(C)c2)c1` gave a half-life of 10.6 h (Beagle dog, male, plasma; oral, 3 mg/kg, crossover study, mean).
For `CCCCc1ccc(C#Cc2ccc(OCC)cc2)cc1`, the concentration was 0.5 ng/mL (refers to: compound; human pregnant women, female fetuses, maternal serum; dose not given, paired maternal-cord samples, mean).
`O=C(O)CCC(=O)O.[2H]C([2H])([2H])Oc1cc(C)c2[nH]ccc2c1CN1CC[C@@H](C2CC2)C[C@H]1c1ccc(C(=O)O)cc1`: “TEAE elevated monocyte” 0% (healthy Chinese subjects; 200 mg once daily, multiple ascending dose).
Under “related serious adverse events”, `C[C@@H](Nc1cc(F)cc(F)c1)c1cc(C(=O)N(C)C)cc2c(=O)cc(N3CCOCC3)oc12` is recorded as 0% (refers to: Diarrhea; advanced solid tumour patients; oral, dose not given, dose expansion).
`COc1ccc(-c2c(-c3ccc(C#N)c(F)c3)nc(N3CCC(N)CC3)n(C)c2=O)cc1F` — result for “discontinuation due to AE”: 0% (neuroendocrine neoplasm patients; oral, 60 mg, dose expansion).
For `CNC(=O)c1cc(Oc2ccc(NC(=O)Nc3ccc(Cl)c(C(F)(F)F)c3)cc2)cc[n+]1[O-]`, the AUC(0-7.5 h) was 190 ng·h/mL (mouse, Oatp1b2 knockout, plasma; oral, 10 mg/kg, without rifampin, geometric mean).
`O=C1NCCc2nc(OCc3cccc(F)c3)ccc21` — result for “Irwin test score”: 0 (refers to: Ptosis; Sprague-Dawley rat male; oral, 100 mg/kg, 0 min; baseline: baseline, direction not given).
For `CC(C)N(C)c1ccc(NS(=O)(=O)c2cc(Cl)cc(Cl)c2O)cc1F`, “DLS scattered light intensity” read 3.48e+07 counts/s (colloidal aggregate formation, dynamic light scattering; 50 mM potassium phosphate buffer; 200 µM, pH 7.0, 1% DMSO; higher = more aggregation).
Under “treatment-related adverse events”, `FC(F)(F)c1ccc(CNc2ccc(Cc3c[nH]c4ncc(Cl)cc34)cn2)cn1` is recorded as 0% (refers to: weight increased; human, advanced solid tumours, non-TGCT cohort; oral, 1000 mg/day, any grade).
`O=C(c1cccnc1-c1ccncc1)N1CCC(O)(Cc2ccccc2)CC1` has a CL/F of 471 L/h (healthy Japanese adults, plasma; 200 mg single dose).
`CNC(=O)COc1ccc(NS(=O)(=O)c2cc(Cl)cc(Cl)c2O)cc1` — result for “DLS scattered light intensity”: 2.86e+07 counts/s (colloidal aggregate formation, dynamic light scattering; 50 mM potassium phosphate buffer; 200 µM, pH 7.0, 1% DMSO; higher = more aggregation).
`COc1ccc2c(c1)CN(C(=O)CCN1CCC(Cc3ccccc3)CC1)CC[S@@+]2[O-]` has a PQ interval of 93 ± 11 ms (telemetry; conscious male beagle dogs; intravenous, NG, 4 h).
Under “nucleoside remaining fraction”, `Nc1nc2c(nc([N+](=O)[O-])n2[C@@H]2O[C@H](CO)[C@@H](O)[C@H]2O)c(=O)[nH]1` is recorded as 0.553 (depurination, RP-HPLC; citrate-phosphate buffer 0.5 mM; 255 min, pH 2, 37 °C).
Under “subjects with epistaxis”, `Cc1cc(Nc2cc3ncccc3c(N[C@@H]3C[C@H]4CC[C@@H](C3)N4CCC#N)n2)n[nH]1` is recorded as 0% (healthy human; oral, 100 mg single dose, 2 weeks).
`C=CC(=O)N(C)CCOc1c(N)ncnc1-c1cc(F)cc(NC(=O)c2ccc(C3CC3)cc2F)c1C` has an AUC of 25.1 ng·h/mL (human, plasma; oral, 15 mg single dose).

Excerpt of the above:
Under “DLS scattered light intensity”, `O=C(O)C1Cc2nnc(CNS(=O)(=O)c3cccc(Cl)c3O)n2C1` (stereo not drawn) is recorded as 1.22e+08 counts/s (colloidal aggregate formation, dynamic light scattering; 50 mM potassium phosphate buffer; 200 µM, pH 7.0, 1% DMSO; higher = more aggregation).
Under “subjects with epistaxis”, `Cc1cc(Nc2cc3ncccc3c(N[C@@H]3C[C@H]4CC[C@@H](C3)N4CCC#N)n2)n[nH]1` is recorded as 0% (healthy human; oral, 100 mg single dose, 2 weeks).
For `CCCCc1ccc(C#Cc2ccc(OCC)cc2)cc1`, the concentration was 0.5 ng/mL (refers to: compound; human pregnant women, female fetuses, maternal serum; dose not given, paired maternal-cord samples, mean).
